Experimental data gathered from unrelated publications.
Parts stem from different laboratories: compare values within a part only. “And” joins repeats or separate records; there may be more than shown.

Series 1
Target: Serine/threonine-protein kinase N2 (PKN2, Homo sapiens, UniProt Q16513)
Chain of UniProt Q16513 (whole entry, looked up): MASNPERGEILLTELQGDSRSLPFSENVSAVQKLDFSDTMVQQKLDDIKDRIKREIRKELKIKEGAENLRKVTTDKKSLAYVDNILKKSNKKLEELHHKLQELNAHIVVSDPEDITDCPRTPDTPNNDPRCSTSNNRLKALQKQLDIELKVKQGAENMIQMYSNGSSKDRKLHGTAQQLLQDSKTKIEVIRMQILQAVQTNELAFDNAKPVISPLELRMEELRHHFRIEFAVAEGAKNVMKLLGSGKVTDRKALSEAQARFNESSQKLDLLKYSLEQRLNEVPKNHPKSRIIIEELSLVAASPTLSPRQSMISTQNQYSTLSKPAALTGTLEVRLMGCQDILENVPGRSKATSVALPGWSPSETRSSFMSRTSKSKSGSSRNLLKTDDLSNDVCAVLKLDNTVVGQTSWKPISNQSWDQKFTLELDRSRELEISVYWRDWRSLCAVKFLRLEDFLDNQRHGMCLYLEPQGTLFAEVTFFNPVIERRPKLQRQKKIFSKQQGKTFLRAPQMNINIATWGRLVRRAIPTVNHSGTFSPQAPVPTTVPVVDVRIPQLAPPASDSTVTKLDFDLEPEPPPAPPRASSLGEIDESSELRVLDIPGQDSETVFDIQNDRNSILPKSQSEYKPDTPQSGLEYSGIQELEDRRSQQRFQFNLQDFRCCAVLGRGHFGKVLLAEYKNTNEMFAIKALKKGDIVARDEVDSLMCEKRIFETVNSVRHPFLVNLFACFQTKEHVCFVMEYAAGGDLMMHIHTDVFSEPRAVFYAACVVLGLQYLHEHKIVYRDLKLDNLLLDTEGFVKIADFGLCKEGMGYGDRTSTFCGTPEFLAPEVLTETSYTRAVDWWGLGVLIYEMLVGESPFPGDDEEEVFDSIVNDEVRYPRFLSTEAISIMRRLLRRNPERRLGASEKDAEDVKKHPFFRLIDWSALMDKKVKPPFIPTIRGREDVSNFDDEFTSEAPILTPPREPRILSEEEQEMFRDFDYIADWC
Read-out: enzyme activity
Action: inhibitor
Concentration: 0.5 µM
Baseline: control
Compound	remaining activity [%]
CNC(=O)c1cc(Oc2ccc(NC(=O)Nc3ccc(Cl)c(C(F)(F)F)c3)cc2)ccn1	94.2
O=c1c2ccccc2[nH]c(=S)n1CCN1CCC(=C(c2ccc(F)cc2)c2ccc(F)cc2)CC1	97.2
Cc1cccc(-c2[nH]c(C(C)(C)C)nc2-c2ccc3c(c2)OCO3)n1	93.5
Cn1c2ccccc2c2c3c(c4c5ccccc5n(CCC#N)c4c21)CNC3=O	67.7
O=C(O)c1ccc2c3c1cccc3c(=O)n1c3ccccc3nc21	97.9
COc1cc2ncnc(Nc3ccc(Oc4ccccc4)cc3)c2cc1OC	93.6
CO[C@H]1C[C@@H]2CC[C@@H](C)[C@@](O)(O2)C(=O)C(=O)N2CCCC[C@H]2C(=O)O[C@H]([C@H](C)C[C@@H]2CC[C@@H](O)[C@H](OC)C2)CC(=O)[C@H](C)/C=C(\C)[C@@H](O)[C@@H](OC)C(=O)[C@H](C)C[C@H](C)/C=C/C=C/C=C/1C	89.8
COc1ccc(CNC(=O)Nc2ncc([N+](=O)[O-])s2)cc1	101
C#Cc1cccc(Nc2ncnc3cc(OCCOC)c(OCCOC)cc23)c1	101
CN(C)c1ccc(C=C2C(=O)Nc3ccccc32)cc1	98.9
Nc1ccc2ncnc(NCCc3ccc(Oc4ccccc4)cc3)c2c1	89.7
Cc1ccc(Nc2nccc(N(C)c3ccc4c(C)n(C)nc4c3)n2)cc1S(N)(=O)=O	106
N#CC(C#N)=C(N)/C(C#N)=C/c1ccc(O)cc1	96.9
O=C1NC(=O)C(c2cn(CCCO)c3ncccc23)=C1c1cnccn1	83.3
Nc1ncnc2n[nH]c(Nc3ccc(F)cc3)c12	82

Series 2
Compound: c1ccc(Oc2ccc(Nc3c4c(nc5ccccc35)CCC4)cc2)cc1
cell line	technique	concentration	time	notes	cytotoxicity
J774.1	resazurin	0.0066 µM	64 h		-3%
RAW264.7	resazurin	3.32 µM			-9% and -8%
HEK293	resazurin	0.0332 µM		10% serum	7% and 10%
PMA-differentiated THP-1 macrophages		0.2 µM	64 h		0% and 15%
RAW264.7	resazurin	33.32 µM	64 h		39% and 40%

Series 3
Cell line: HaCaT
Concentration: 100 µM
Time: 36 h
Structure (SMILES)	viability
CC1(C)O[C@H]2CC(=O)OC[C@]23[C@H]2CC[C@@]4(C)[C@H](c5ccoc5)OC(=O)[C@H]5O[C@]54[C@]2(C)C(=O)C[C@@H]13	64.7%
NS(=O)(=O)c1cc(C2(O)NC(=O)c3ccccc32)ccc1Cl (stereo not shown)	61%
CN(C)[C@@H]1C(O)=C(C(N)=O)C(=O)[C@@]2(O)C(O)=C3C(=O)c4c(O)ccc(Cl)c4[C@@](C)(O)[C@H]3C[C@@H]12	57.5%
OCC(O)CN1CCN(c2ccccc2)CC1 (stereo not shown)	108%
CN1C(C(=O)Nc2ccccn2)=C(O)c2sccc2S1(=O)=O	52.4%

Series 4
Target: 5-hydroxytryptamine receptor 1B (HTR1B, Homo sapiens, UniProt P28222)
Chain of UniProt P28222 (whole entry, looked up): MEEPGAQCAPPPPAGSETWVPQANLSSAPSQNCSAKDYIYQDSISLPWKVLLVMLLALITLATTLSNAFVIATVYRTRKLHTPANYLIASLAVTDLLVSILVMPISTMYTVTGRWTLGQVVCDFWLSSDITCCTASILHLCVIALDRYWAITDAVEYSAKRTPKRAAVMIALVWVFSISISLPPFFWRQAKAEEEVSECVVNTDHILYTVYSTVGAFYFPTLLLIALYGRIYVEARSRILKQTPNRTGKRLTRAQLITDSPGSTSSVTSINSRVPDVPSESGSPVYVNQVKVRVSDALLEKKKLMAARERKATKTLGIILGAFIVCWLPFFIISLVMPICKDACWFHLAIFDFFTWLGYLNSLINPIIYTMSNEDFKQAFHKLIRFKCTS
Read-out: ligand displacement
Technique: radioligand
Concentration: 10 µM
SMILES	inhibition [%]
CN(c1ccnc(CNc2nc(Nc3ccc4c(c3)CC(=O)N4)ncc2C(F)(F)F)n1)S(C)(=O)=O	5.78
C[C@H](c1cccc(C#N)c1)n1cc(Cl)cc(C(N)=O)c1=N	-4.95
CCC(=O)N[C@@H]1CC[C@H](C(=O)N(C)c2ccc(-c3nc4ccccc4o3)cc2)C1	-14.1
COCCOc1nc(-c2ccc(Cl)nc2)nc2c1CN(C(=O)c1ncn3ccccc13)CC2	23.3
CC(C)(C)OC(=O)N1CCCC1CNC1CCC(c2cc(F)ccc2F)(S(=O)(=O)c2ccc(Cl)cc2)CC1 (stereo not shown)	70.4
COc1ccc2c(O[C@@H]3C[C@H]4C(=O)N[C@]5(C(=O)O)CC5/C=C\CCCCC[C@H](NC(=O)OC5CCCC5)C(=O)N4C3)cc(-c3csc(NC(=O)C(C)C)n3)nc2c1C (stereo partly shown)	7.71

For quick reference, copied from above (series 3):
Structure (SMILES)	viability
CC1(C)O[C@H]2CC(=O)OC[C@]23[C@H]2CC[C@@]4(C)[C@H](c5ccoc5)OC(=O)[C@H]5O[C@]54[C@]2(C)C(=O)C[C@@H]13	64.7%
NS(=O)(=O)c1cc(C2(O)NC(=O)c3ccccc32)ccc1Cl (stereo not shown)	61%
CN(C)[C@@H]1C(O)=C(C(N)=O)C(=O)[C@@]2(O)C(O)=C3C(=O)c4c(O)ccc(Cl)c4[C@@](C)(O)[C@H]3C[C@@H]12	57.5%
OCC(O)CN1CCN(c2ccccc2)CC1 (stereo not shown)	108%
CN1C(C(=O)Nc2ccccn2)=C(O)c2sccc2S1(=O)=O	52.4%
